Experimental data pooled from the literature.
Each line is one published result; not all experiments were run side by side.

`C=CC(=O)Nc1cc(Nc2nccc(-c3cn(C)c4ccccc34)n2)c(OC)cc1N(C)CCN(C)C`: “patients with adverse events” 1% (item: treatment-related grade ≥3 Thrombocytopenia; EGFR-mutant MET-altered NSCLC; oral, dose not given, all).
Under “patients with HR above 100 bpm”, `CCOc1c([C@H](C)n2nc(C)c3c(N)ncnc32)cc(Cl)c(F)c1[C@@H]1CNC(=O)C1` is recorded as 7.7% (ECG; previously treated B-cell malignancy patients; oral, 30 mg once daily, baseline below thresholds).
`FC(F)(F)c1ccc(CNc2ccc(Cc3c[nH]c4ncc(Cl)cc34)cn2)cn1`: “patients with treatment-related adverse event” 9% (item: skin hypopigmentation; advanced solid tumour patients; oral, 1000 mg/day, all grades, all cohorts).
Under “patients with immune-mediated AE”, `Cc1cc(-c2nnc(N)nc2-c2ccc(F)cc2)cc(Cl)n1` is recorded as 0% (item: Myositis; IO-naive mCRPC patients, male; oral, dose not given, treatment-related, grade 2).
For `O=C(Nc1nc2cccc(-c3ccc(CN4CCS(=O)(=O)CC4)cc3)n2n1)C1CC1`, “patients with gastritis” read 0% (rheumatoid arthritis patients; oral, 200 mg once daily, 4 weeks, regardless of relatedness).
`COc1cc(Nc2ncc3c(n2)-c2ccc(Cl)cc2C(c2c(F)cccc2OC)=NC3)ccc1C(=O)O`: “patients with adverse event” 29% (item: Fatigue, grade 2; cancer patients, phase 1/2; oral, dose not given, together with: pembrolizumab).
`C[C@@H](c1ccc2nccn2c1)n1nnc2ncc(-c3cnn(C)c3)nc21` — result for “patients with treatment-related AEs”: 0% (item: Dyspnea grade ≥3; EGFR-mutant MET-altered NSCLC; oral, study).
`Cc1cc(NC2CCN(C(=O)OC3CCN(C(=O)/C=C/CN(C)C)C3)CC2)n2ncc(C(C)C)c2n1` (stereo not drawn): “patients with adverse event” 0% (Phase I dose escalation CTCAE v4.0, item: Dyspepsia; patients with advanced solid tumours; dose not given, TIW dosing any grade).
`C=CC(=O)NC1CCN(c2ncc3ncnc(Nc4ccc(Oc5ccc6c(c5)ncn6C)c(C)c4)c3n2)CC1`: “patients with Fatigue” 6% (male patients; oral, dose not given, on-treatment adverse events).
`CNC(=O)c1ccc(-c2cnc3ncc(Cc4ccc5ncccc5c4)n3n2)cc1F` — result for “patients with adverse event”: 0% (item: Diarrhea; other cancer patients; oral, 600 mg twice daily, expansion cohort, grade 3-4).
`COc1ccc([C@@H](O)c2cc(-c3ncnc4cc(N5CCOCC5)ccc34)c(F)cc2Cl)nn1`: “patients with TEAE” 83% (item: general and administration site disorders; locally advanced rectal cancer patients; 100 mg, together with: capecitabine plus radiotherapy).
Under “patients discontinuing for AE”, `C[C@@H](Nc1cc(F)cc(F)c1)c1cc(C(=O)N(C)C)cc2c(=O)cc(N3CCOCC3)oc12` is recorded as 0% (item: Tachycardia; advanced solid tumour patients; oral, dose not given, dose expansion).

Some of these lines once more:
`FC(F)(F)c1ccc(CNc2ccc(Cc3c[nH]c4ncc(Cl)cc34)cn2)cn1`: “patients with treatment-related adverse event” 9% (item: skin hypopigmentation; advanced solid tumour patients; oral, 1000 mg/day, all grades, all cohorts).
